Experimental data from different studies.
Every numbered part comes from another study and shows a few of its results, in no order. Several values in a cell are separate wells, animals, samples, runs or records.
UniProt Q5XXA6, sequence (whole entry, unmodified, looked up): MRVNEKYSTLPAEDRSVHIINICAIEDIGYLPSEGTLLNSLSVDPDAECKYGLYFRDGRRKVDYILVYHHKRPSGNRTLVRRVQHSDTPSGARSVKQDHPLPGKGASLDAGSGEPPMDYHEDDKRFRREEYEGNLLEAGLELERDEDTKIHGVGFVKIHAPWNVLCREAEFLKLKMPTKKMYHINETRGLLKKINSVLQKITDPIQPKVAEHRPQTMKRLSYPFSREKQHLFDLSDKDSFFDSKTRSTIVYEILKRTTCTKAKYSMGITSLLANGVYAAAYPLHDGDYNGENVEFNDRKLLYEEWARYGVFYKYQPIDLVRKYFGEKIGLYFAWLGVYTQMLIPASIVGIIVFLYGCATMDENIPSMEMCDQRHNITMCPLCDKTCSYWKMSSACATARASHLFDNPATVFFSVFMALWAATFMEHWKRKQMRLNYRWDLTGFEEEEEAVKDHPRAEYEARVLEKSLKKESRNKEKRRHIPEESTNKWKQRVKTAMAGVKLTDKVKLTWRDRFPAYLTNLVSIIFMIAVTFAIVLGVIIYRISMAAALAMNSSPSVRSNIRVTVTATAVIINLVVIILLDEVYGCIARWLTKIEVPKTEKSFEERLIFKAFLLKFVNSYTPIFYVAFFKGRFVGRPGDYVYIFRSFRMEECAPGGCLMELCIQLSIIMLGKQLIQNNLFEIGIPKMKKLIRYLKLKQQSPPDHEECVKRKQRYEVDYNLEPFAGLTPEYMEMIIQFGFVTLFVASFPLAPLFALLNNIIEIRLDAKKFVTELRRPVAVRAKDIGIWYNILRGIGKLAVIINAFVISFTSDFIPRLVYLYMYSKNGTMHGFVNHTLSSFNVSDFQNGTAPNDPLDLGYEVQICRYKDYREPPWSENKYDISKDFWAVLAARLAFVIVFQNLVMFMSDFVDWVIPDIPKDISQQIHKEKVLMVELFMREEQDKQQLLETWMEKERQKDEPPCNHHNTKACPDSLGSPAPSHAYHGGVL
UniProt Q8NEB9, sequence (whole entry, looked up): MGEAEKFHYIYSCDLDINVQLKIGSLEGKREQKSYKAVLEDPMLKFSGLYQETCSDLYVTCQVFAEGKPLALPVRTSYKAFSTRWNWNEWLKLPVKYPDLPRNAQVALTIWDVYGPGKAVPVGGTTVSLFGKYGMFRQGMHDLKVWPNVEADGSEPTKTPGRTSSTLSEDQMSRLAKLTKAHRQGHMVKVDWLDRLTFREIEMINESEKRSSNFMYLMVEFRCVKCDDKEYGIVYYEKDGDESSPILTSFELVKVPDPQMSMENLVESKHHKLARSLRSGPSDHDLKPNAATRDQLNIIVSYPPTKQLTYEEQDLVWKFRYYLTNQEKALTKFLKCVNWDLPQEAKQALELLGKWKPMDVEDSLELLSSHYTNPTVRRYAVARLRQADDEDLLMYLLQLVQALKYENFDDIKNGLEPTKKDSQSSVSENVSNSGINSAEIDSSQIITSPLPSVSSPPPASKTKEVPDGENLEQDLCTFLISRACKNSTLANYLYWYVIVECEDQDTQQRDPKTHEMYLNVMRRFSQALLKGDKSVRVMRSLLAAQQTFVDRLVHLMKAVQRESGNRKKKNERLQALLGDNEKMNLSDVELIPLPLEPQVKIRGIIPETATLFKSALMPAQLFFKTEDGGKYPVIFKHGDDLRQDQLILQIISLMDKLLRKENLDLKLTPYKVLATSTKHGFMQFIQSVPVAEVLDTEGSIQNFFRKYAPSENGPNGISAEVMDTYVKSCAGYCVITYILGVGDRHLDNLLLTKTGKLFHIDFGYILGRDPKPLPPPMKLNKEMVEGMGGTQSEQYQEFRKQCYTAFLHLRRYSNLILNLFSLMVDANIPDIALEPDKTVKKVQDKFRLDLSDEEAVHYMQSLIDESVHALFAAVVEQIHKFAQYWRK
UniProt P09619, sequence (whole entry, looked up): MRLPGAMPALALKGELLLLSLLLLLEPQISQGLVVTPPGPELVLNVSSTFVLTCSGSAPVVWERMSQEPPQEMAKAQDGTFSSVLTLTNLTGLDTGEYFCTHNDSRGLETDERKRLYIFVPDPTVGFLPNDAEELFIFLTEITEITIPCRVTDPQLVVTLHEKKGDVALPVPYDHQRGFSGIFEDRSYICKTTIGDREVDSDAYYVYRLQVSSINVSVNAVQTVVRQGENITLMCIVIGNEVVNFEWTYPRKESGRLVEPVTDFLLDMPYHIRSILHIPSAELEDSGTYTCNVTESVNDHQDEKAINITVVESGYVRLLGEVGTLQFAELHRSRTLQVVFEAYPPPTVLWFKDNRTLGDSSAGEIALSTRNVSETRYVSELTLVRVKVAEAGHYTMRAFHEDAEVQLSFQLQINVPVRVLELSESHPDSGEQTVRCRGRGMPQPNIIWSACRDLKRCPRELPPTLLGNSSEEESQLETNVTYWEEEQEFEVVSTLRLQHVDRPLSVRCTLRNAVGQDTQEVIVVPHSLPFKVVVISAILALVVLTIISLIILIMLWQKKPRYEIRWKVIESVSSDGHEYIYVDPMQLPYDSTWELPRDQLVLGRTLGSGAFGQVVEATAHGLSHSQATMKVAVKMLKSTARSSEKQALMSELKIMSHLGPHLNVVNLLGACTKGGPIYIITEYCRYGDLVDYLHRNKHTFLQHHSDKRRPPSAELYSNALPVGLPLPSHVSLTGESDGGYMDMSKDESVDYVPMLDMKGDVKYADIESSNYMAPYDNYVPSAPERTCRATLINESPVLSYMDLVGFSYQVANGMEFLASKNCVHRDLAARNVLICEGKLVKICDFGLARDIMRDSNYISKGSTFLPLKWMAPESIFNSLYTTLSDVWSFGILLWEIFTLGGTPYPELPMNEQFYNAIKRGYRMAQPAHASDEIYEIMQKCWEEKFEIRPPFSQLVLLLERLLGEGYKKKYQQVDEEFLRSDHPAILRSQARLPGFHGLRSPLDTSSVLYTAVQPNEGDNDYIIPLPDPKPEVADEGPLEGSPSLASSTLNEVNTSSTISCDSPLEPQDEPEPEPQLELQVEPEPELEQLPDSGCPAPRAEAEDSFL
UniProt Q8WXR4, sequence (whole entry, looked up): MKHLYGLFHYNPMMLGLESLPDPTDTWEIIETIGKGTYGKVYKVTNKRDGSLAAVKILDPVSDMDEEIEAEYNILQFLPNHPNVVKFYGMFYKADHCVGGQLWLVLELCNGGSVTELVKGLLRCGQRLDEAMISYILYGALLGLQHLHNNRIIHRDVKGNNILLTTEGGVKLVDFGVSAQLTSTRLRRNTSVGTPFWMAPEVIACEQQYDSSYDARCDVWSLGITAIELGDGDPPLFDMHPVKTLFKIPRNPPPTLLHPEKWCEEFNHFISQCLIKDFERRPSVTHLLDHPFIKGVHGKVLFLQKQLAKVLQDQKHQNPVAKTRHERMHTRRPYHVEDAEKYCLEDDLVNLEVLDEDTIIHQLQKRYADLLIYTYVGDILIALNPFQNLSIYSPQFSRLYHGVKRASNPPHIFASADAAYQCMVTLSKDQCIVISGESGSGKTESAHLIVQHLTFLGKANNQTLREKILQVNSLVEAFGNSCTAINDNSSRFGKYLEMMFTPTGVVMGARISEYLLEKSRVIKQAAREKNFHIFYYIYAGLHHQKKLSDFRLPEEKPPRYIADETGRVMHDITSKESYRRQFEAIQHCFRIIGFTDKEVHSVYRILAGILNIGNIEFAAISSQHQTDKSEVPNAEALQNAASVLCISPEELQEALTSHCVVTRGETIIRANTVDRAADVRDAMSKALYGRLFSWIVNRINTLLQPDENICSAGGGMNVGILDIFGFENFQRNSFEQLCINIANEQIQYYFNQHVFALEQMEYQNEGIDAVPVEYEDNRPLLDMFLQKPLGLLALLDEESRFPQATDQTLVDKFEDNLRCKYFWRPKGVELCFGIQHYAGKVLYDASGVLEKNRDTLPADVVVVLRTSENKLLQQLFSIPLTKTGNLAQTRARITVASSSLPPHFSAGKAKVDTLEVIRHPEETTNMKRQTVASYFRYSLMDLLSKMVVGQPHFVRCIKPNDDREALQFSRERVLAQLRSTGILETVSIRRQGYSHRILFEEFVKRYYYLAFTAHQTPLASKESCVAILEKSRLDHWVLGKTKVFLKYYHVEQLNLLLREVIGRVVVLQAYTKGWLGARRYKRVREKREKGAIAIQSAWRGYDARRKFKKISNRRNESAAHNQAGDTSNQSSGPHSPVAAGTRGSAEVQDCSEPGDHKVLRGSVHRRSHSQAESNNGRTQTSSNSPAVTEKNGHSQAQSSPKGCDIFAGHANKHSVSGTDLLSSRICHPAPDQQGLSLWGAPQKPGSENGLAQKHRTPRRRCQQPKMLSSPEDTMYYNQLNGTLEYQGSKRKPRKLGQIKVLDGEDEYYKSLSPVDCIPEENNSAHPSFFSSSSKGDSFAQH
UniProt Q9UPZ9, sequence (whole entry, looked up): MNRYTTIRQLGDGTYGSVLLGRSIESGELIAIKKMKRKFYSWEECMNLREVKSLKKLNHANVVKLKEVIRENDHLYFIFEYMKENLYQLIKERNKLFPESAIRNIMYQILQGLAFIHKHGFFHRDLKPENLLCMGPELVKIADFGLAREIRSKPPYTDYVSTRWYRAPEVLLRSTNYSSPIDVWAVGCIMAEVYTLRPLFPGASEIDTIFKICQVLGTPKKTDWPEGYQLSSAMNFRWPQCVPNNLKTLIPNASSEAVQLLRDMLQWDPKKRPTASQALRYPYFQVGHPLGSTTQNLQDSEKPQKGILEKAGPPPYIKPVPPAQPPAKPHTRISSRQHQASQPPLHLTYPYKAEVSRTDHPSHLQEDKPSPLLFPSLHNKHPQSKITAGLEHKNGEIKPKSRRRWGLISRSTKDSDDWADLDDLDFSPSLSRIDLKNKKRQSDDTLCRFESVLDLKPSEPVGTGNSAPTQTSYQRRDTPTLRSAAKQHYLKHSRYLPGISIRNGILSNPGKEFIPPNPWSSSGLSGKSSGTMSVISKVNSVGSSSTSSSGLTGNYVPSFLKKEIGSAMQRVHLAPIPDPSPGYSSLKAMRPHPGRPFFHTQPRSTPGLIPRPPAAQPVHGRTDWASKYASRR

Sample 1
Compound: CC(C)(C)c1cnc(CSc2cnc(NC(=O)C3CCN(CCCCCSc4cccc5c4CN(C4CCC(=O)NC4=O)C5=O)CC3)s2)o1 (centres unmarked)
cell line	assay	setting	how to read	viability
HH	CCK-8	250 nM	–	0%
HuT78	trypan blue exclusion	100 nM, 48 h	baseline: untreated control	23% and 16.1%
HuT78	trypan blue exclusion	1 nM, 48 h	baseline: untreated control	100%
HuT78	–	250 nM, 24 h	–	3.16% and 6.58% and 5.64%
HuT78	trypan blue exclusion	1000 nM, 48 h	baseline: untreated control	6.67% and 9.66%
HuT78	trypan blue exclusion	250 nM, 48 h	baseline: untreated control	10.3% and 13.4%
HuT78	cell growth or viability, trypan blue	0.1 µM, 48 h	–	13.5%

Sample 2
SMILES: COc1cc(-c2cn(C3CCc4c(F)cccc4N(CC(F)(F)F)C3=O)nn2)ccc1-n1cnc(C)c1 (centres unmarked)
Concentration: 1 µM
target	assay	remaining binding [%]
EGFR (Homo sapiens, UniProt P00533, L858R/T790M)	cell-free assay, competition with immobilised ligand	82
CAMK2B (Homo sapiens, UniProt Q13554)	cell-free assay, competition with immobilised ligand	100
SIK1 (Homo sapiens, UniProt P57059)	competition binding	100
MAPKAPK2 (Homo sapiens, UniProt P49137)	cell-free assay, competition with immobilised ligand	100
CDK2 (Homo sapiens, UniProt P24941)	cell-free assay, competition with immobilised ligand	100
PDGFRB (Homo sapiens, UniProt P09619)	cell-free assay, competition with immobilised ligand	100
STK39 (Homo sapiens, UniProt Q9UEW8)	cell-free assay, competition with immobilised ligand	100
CSNK1E (Homo sapiens, UniProt P49674)	cell-free assay, competition with immobilised ligand	80
CILK1 (Homo sapiens, UniProt Q9UPZ9)	cell-free assay, competition with immobilised ligand	65
NEK6 (Homo sapiens, UniProt Q9HC98)	cell-free assay, competition with immobilised ligand	100
ALK (Homo sapiens, UniProt Q9UM73, C1156Y)	cell-free assay, competition with immobilised ligand	100
TNNI3K (Homo sapiens, UniProt Q59H18)	cell-free assay, competition with immobilised ligand	100
LTK (Homo sapiens, UniProt P29376)	cell-free assay, competition with immobilised ligand	100
WNK4 (Homo sapiens, UniProt Q96J92)	cell-free assay, competition with immobilised ligand	100
KDR (Homo sapiens, UniProt P35968)	cell-free assay, competition with immobilised ligand	100
FLT3 (Homo sapiens, UniProt P36888, K663Q)	cell-free assay, competition with immobilised ligand	92
CAMK2D (Homo sapiens, UniProt Q13557)	cell-free assay, competition with immobilised ligand	100
DSTYK (Homo sapiens, UniProt Q6XUX3)	cell-free assay, competition with immobilised ligand	100
MAPKAPK5 (Homo sapiens, UniProt Q8IW41)	cell-free assay, competition with immobilised ligand	100
DCLK2 (Homo sapiens, UniProt Q8N568)	cell-free assay, competition with immobilised ligand	100
Aurora kinase B (AURKB, Homo sapiens, UniProt Q96GD4)	cell-free assay, competition with immobilised ligand	100
Myosin-IIIb (MYO3B, Homo sapiens, UniProt Q8WXR4)	binding, competition with immobilised ligand	100
PIK3C3 (Homo sapiens, UniProt Q8NEB9)	cell-free assay, competition with immobilised ligand	100
PRKG2 (Homo sapiens, UniProt Q13237)	cell-free assay, competition with immobilised ligand	100
Tyrosine-protein kinase ABL1, phosphorylated (ABL1, Homo sapiens, UniProt P00519, Y253F)	cell-free assay, competition with immobilised ligand	100

Sample 3
Structure (SMILES): C=CCc1ccc(O)c(-c2ccc(O)c(CC=C)c2)c1
Read-out: chloride current
Technique: whole-cell voltage clamp
target	assay	setting	IC50 [µM]
Anoctamin-1 (ANO1, Homo sapiens, UniProt Q5XXA6, del476-501/F646A)	–	membrane voltage 80 mV	7.73
Anoctamin-1 (ANO1, Homo sapiens, UniProt Q5XXA6, del476-501/R631D)	inhibitor	R605D mutant at -80 mV	18.5
Anoctamin-1 (ANO1, Homo sapiens, UniProt Q5XXA6, del476-501/R631I)	inhibitor	R605I mutant at 60 mV	25.4
Anoctamin-1 (ANO1, Homo sapiens, UniProt Q5XXA6, del476-501/F628I)	inhibitor	mutant F602I at 100 mV, together with: 300 nM Ca2+	9.86
Anoctamin-1 (ANO1, Homo sapiens, UniProt Q5XXA6, del476-501/F807Y)	inhibitor	60 mV holding voltage	10.6
Anoctamin-1 (ANO1, Homo sapiens, UniProt Q5XXA6, del476-501/M544A)	–	membrane voltage 60 mV	3.74

Sample 4
Host: human
Medium: microsomes or S9
Concentration: 2 µM
Time: 0.5 h
Compound	remaining compound [%]
CCCc1cc(C(=O)N(C)CC2Cc3ccccc3CN2C)[nH]n1 (centres unmarked)	49.9
Cc1ccc(C(=O)/N=c2\c(C)cccn2C(=O)c2ccc(C)o2)o1	1.02
Cc1ccc(C2CC(=O)Nc3c2c(C)nn3-c2ccc(N3CCCCC3)nn2)cc1C (centres unmarked)	> 100
O=C(c1ccc(Cl)s1)N1CCCn2nc(-c3ccncc3)cc2C1	68.3
O=C1Nc2ccccc2Oc2cc(Oc3cccc4cccnc34)c(S(=O)(=O)N3CCOCC3)cc21	7.74

Sample 5
Organism: Sarcocystis neurona
Read-out: parasite activity
Concentration: 10 µM
Time: 96 h
SMILES	activity class
CCC1=C(C)CN(C(=O)NCCc2ccc(S(=O)(=O)NC(=O)N[C@H]3CC[C@H](C)CC3)cc2)C1=O	inactive
COC1=CC(=O)C[C@@H](C)[C@]12Oc1c(Cl)c(OC)cc(OC)c1C2=O	inactive
O=C(O[C@H]1[C@H](Oc2ccccc2COC(=O)C2(O)C=CCCC2=O)O[C@H](CO)[C@@H](O)[C@@H]1O)c1ccccc1 (some centres unmarked)	inactive
CCOC(=O)[C@H](CCc1ccccc1)N[C@H]1CCc2ccccc2N(CC(=O)O)C1=O	inactive
Cc1ccsc1C(=CCCN1CCC[C@@H](C(=O)O)C1)c1sccc1C	inactive
CC1(C)S[C@@H]2[C@H](NC(=O)[C@H](N)c3ccccc3)C(=O)N2[C@H]1C(=O)O	inactive

Mixed results
SMILES	cell line	assay	setting	quantity	result
CC(C)S(=O)(=O)c1cc2c(Nc3ccc4sc(C5CCCC5)nc4c3)ccnc2cc1OCCO	HT-29	necroptosis	together with: TNF-α	EC50	0.159 µM

For quick reference, copied from above (sample 1):
cell line	assay	setting	how to read	viability
HH	CCK-8	250 nM	–	0%
HuT78	trypan blue exclusion	100 nM, 48 h	baseline: untreated control	23% and 16.1%
HuT78	cell growth or viability, trypan blue	0.1 µM, 48 h	–	13.5%
HuT78	trypan blue exclusion	250 nM, 48 h	baseline: untreated control	10.3% and 13.4%
